Measured values gathered from unrelated publications.
Every numbered part comes from another study and shows a few of its results, in no order.

Sample 1 — method: protein-binding microarray; molecule type: double-stranded DNA, one strand shown; medium: in vitro; concentration: 250 nM; setting: 60-bp whole probe; together with: salmon DNA 0.4 mg/ml; baseline: random background probes; reading: higher = stronger binding
Target: Interferon regulatory factor 5, full length, phosphomimetic (IRF5, Homo sapiens, UniProt Q13568-2, residues 1-514, K96S/S451D/S453D/S456D/S462D)
`GCCTAGCACTTAGGTCTCCTTTTCCTGTAGTGCTAGGTCTTGATTCGCTTGACGCTGCTG` gave a log fluorescence of 0.468 z-score.
`GCCTAGCACGACGGACTGGGTCTCCGGACGTGCTAGGTCTTGATTCGCTTGACGCTGCTG` has a log fluorescence of -0.668 z-score.
The log fluorescence of `GCCTAGCACGACTGTTTCGGTCTCGGGACGTGCTAGGTCTTGATTCGCTTGACGCTGCTG` is reported as 9.14 z-score.
`GCCTAGCACTCATAATTCTCTTTTCAACTGTGCTAGGTCTTGATTCGCTTGACGCTGCTG` has a log fluorescence of 1.36 z-score.

Sample 2 — method: universal PBM; molecule type: double-stranded DNA, one strand shown; medium: in vitro; concentration: not given; reading: higher = stronger binding
Target: Sal-like protein 4, full length isoform B (SALL4, Homo sapiens, UniProt Q9UJQ4-2, residues 1-616)
Setting: 8-mer, flanks averaged, mean of replicates
With `ACCCGAGT` the E-score was -0.268.
For `CAGCATGA`, the E-score was -0.0885.
For `AAATCTCT`, the E-score was 0.17.
The E-score of `GCGTTTAC` is reported as -0.104.
`CTAGATAA` gave an E-score of 0.167.
For `GCCTTTAA`, the E-score was 0.111.
`ATAAGTCG` has an E-score of 0.0978.

Sample 3 — method: protein-binding microarray; molecule type: double-stranded DNA, one strand shown; medium: in vitro; concentration: not given; reading: higher = stronger binding
Target: Protein C-ets-1 (ETS1, Homo sapiens, UniProt P14921, residues 1-441, full length assumed)
Sequence of UniProt P14921 (whole entry, looked up): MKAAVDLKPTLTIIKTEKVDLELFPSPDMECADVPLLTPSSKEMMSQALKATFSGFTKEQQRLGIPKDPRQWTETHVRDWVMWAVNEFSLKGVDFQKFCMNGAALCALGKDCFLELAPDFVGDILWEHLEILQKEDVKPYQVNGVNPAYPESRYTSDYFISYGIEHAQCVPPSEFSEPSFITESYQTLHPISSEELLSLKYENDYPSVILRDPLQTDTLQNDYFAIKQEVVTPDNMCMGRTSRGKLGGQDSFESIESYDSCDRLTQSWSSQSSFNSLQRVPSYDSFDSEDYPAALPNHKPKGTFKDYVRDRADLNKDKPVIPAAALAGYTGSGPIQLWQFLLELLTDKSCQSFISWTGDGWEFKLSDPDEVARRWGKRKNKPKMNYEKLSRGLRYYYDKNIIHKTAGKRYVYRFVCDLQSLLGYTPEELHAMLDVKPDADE
Setting: k-mer, scored over probes, only values ≥0.25
With `ACCGCCGG` the E-score was 0.266.
`AGAACCGG` gave an E-score of 0.255.
`GTTCCGGA` gave an E-score of 0.461.
`ACCCGGAT` has an E-score of 0.404.
For `ACCACTTC`, the E-score was 0.282.
With `CGCATCCG` the E-score was 0.474.

Further values, each from its own experiment
`PhoQ, residues 284 288 289 292 302 303 TASMAF` has a fold induction of 18.6 (PhoP, residues 12 14 15 18 19 IFFTR (Escherichia coli, UniProt P23836); Sort-seq, item: YFP reporter; E. coli; PhoQ-PhoP variant library, together with: 10 µM Mg2+; baseline: high Mg2+ state, higher = stronger signaling).

Repeated from above (sample 2):
The E-score of `GCGTTTAC` is reported as -0.104.
